{"data": "Published values collected from several papers", "note": "A part holds a random share of what one study measured. Substitutions count along the parent as printed."}
{"data": "Study 1", "target": "Sal-like protein 4, full length isoform B (SALL4, Homo sapiens, UniProt Q9UJQ4-2, residues 1-616)", "technique": "universal PBM", "molecule type": "double-stranded DNA, one strand shown", "sample": "in vitro", "tested at": "not given", "notes": "8-mer, flanks averaged, mean of replicates", "reading": "higher = stronger binding"}
{"Oligonucleotide": "GCGGTACA", "E-score": -0.137}
{"Oligonucleotide": "AGAGATTA", "E-score": 0.102}
{"Oligonucleotide": "GTTCCAAC", "E-score": -0.0973}
{"Oligonucleotide": "CTCACCAC", "E-score": -0.14}
{"Oligonucleotide": "TTAATTAA", "E-score": 0.386}
{"Oligonucleotide": "CACTACTA", "E-score": 0.0547}
{"Oligonucleotide": "CTTACGGC", "E-score": -0.236}
{"Oligonucleotide": "GCCAAGAC", "E-score": -0.0941}
{"Oligonucleotide": "AAAGTTCG", "E-score": -0.0158}
{"data": "Study 2", "target": "CCNB2, cyclin fold, Cln2 fusion (human)", "technique": "yeast growth competition, sequencing", "sample": "yeast", "notes": "weak parent motif", "reference": "not given", "reading": "higher = stronger binding", "starting sequence": "PKN2 docking peptide (human); VSAVQKLDFSDTM; partner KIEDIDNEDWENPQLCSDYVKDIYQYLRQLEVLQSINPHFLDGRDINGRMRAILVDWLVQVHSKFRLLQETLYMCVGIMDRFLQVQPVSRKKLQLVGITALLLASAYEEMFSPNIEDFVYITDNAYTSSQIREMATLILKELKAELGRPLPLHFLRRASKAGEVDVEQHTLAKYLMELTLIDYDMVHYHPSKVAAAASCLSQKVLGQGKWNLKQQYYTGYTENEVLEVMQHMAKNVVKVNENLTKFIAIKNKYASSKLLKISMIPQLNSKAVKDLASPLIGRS"}
{"Substitution": "VSARQKLDFSDTM [V4R]", "normalised enrichment score": 0.432}
{"Substitution": "VSAVQKHDFSDTM [L7H]", "normalised enrichment score": -0.0261}
{"Substitution": "VSAVQKSDFSDTM [L7S]", "normalised enrichment score": -0.379}
{"Substitution": "VSAVQKLDFSDTH [M13H]", "normalised enrichment score": 0.312}
{"Substitution": "VSAVQKWDFSDTM [L7W]", "normalised enrichment score": 0.0529}
{"Substitution": "VSAVQKLGFSDTM [D8G]", "normalised enrichment score": -0.429}
{"Substitution": "VSAVQKQDFSDTM [L7Q]", "normalised enrichment score": -0.282}
{"Substitution": "VSALQKLDFSDTM [V4L]", "normalised enrichment score": -0.19}
{"Substitution": "VSAVQKLDFWDTM [S10W]", "normalised enrichment score": -0.195}
{"data": "Study 3", "target": "Centromere-binding protein 1, full length, His-tagged (CBF1, Saccharomyces cerevisiae, UniProt P17106, residues 1-351)", "technique": "competition protein-binding microarray", "molecule type": "double-stranded DNA, one strand shown", "sample": "in vitro", "tested at": "2 µM", "notes": "whole 60-bp probe, lowest competitor level", "added": "Pho4 competitor, 0.05 µM", "reading": "higher = stronger binding", "all sequences stand within": "… GTCTTGATTCGCTTGACGCTGCTG", "chain of UniProt P17106 (whole entry, looked up)": "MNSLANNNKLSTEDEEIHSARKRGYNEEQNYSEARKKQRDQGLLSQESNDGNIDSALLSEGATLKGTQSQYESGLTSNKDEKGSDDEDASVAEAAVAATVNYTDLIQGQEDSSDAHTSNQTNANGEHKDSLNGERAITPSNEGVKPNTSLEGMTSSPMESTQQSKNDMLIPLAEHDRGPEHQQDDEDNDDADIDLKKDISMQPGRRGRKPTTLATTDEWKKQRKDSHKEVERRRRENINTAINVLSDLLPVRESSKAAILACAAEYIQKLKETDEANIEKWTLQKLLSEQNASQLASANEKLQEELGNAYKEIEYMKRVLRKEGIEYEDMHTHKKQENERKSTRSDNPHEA"}
{"Oligonucleotide": "TACAGTTGGGTCCATCACATGCAAACATTTCTCCAA", "fluorescence intensity [a.u.]": 372}
{"Oligonucleotide": "GGAAAGCAACGAGTGATCGTGACGGCATAATTGCCT", "fluorescence intensity [a.u.]": 101}
{"Oligonucleotide": "TCATGTTCCTGACAGGGCGTGATGGACTTTACTATT", "fluorescence intensity [a.u.]": 102}
{"Oligonucleotide": "TGCACTTATTATTACTACGTGGTGAATTTTCTCTTT", "fluorescence intensity [a.u.]": 82.4}
{"Oligonucleotide": "AACTCTTTTGAAAATTACGTGCCAGAAAACCCAACC", "fluorescence intensity [a.u.]": 109}
{"Oligonucleotide": "AGATTCGAATTACCATCCGTGACGGACATCTTATTT", "fluorescence intensity [a.u.]": 75.2}
{"Oligonucleotide": "GAAGAACCTTTACTACATGTGCTGCCAACCAAACCA", "fluorescence intensity [a.u.]": 120}
{"Oligonucleotide": "TATATTAGGTCGAGTCACGGGTGGTGTCCCTCAAGC", "fluorescence intensity [a.u.]": 266}
{"data": "Single results of other studies"}
{"Molecule": "PhoQ, residues 284 288 289 292 302 303 TLMATV", "target": "PhoP, residues 12 14 15 18 19 LYHSL (Escherichia coli, UniProt P23836)", "assay": "Sort-seq, refers to: YFP reporter", "test system": "E. coli", "conditions": "PhoQ-PhoP variant library, added: 10 µM Mg2+", "scale": "reference: high Mg2+ state, higher = stronger signaling", "endpoint": "fold induction", "value": 1.95}
{"note": "Some of these lines once more (study 1):"}
{"Oligonucleotide": "TTAATTAA", "E-score": 0.386}
{"Oligonucleotide": "CACTACTA", "E-score": 0.0547}
{"Oligonucleotide": "CTTACGGC", "E-score": -0.236}
